# Experimental data pooled from the literature.
# Every numbered part comes from another study and shows a few of its results, in no order. Positions count from the first letter of the parent shown.

# Block 1
# Target: ABI1, truncated, D143A, DHFR fusion (Arabidopsis thaliana)
# Method: DHFR PCA, deep sequencing
# Medium: yeast
# Setting: methotrexate growth selection, single substitutions
# Together with: (+)-ABA 0.0091 µM
# Relative to: wild-type fitted maximum
# Direction: higher = stronger binding
# Parent: PYL1, truncated, DHFR fusion (Arabidopsis thaliana); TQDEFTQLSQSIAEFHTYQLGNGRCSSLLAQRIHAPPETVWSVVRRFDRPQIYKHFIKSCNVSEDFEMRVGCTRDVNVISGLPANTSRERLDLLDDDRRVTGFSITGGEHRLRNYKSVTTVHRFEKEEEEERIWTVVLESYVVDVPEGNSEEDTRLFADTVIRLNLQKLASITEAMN
Change,relative binding score [%]
P50E,1.74
E151I,37.8
N114F,-5.34
G107S,32.4
V161C,47.3
R132E,56.3
L91K,-4.93
I52D,41.2
I12H,-3.99
V76D,-2.51
E64K,48.5
I52C,11.6
D159K,-1.7
E64N,31
M68E,-1.3
Y141G,-3.58
R32I,39.4
K168P,1.89
E109N,45.1
L20M,29
R113A,4.58

# Block 2
# Target: RNA binding protein fox-1 homolog 2, RRM domain, GST-SBP tag (RBFOX2, Homo sapiens, UniProt O43251-10, residues 100-194)
# Method: RNA Bind-n-Seq
# Form: RNA
# Medium: in vitro
# Tested at: 365 nM
# Setting: natural RNA segment, single round, ends assumed
# Relative to: no-protein control
# Direction: higher = stronger binding
# Shared flanks, not repeated: GGGAGUUCUACAGUCCGACGAUC … UGGAAUUCUCGGGUGCCAA
# Construct (chain): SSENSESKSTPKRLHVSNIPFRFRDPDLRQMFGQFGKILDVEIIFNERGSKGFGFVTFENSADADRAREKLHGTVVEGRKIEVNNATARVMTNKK
Sequence,RBNS enrichment (R)
AUGCUUAAACACAUUUAAUUGCUGUCAGAUUAAUUCCAUGAUCACUAAAGAGUUGCUGCUUUUUUCAUAUUUAUUUUUGUAAAUGAUUCUGUGCCCAGGAGCAGCUGGGG,0.423
CAGAUGGUUGUGAGCCACCAUGUGGUUGCUGGGAAUUGAACUCAGGACCUUUGGAUAAGAAACCAGUGUUCUUAACUGCUGAGCCAUCUCUCCAGUUAGCUAACUGGAUU,0.212
AGUUGUUGAAGGUACCGCUUAAGCCAUUUUUUUCUUAACAUCGGUGGCUCAGUUAAGGAAUGAGAAGAUAGAGGGUCCUCCACUUUCAGCUCAUGCUUUUUUAUGUAGGA,0.346
CCCGUAUUUGGAAAGUGUGGAGUUUGUGUUGGAAAAGCUGCCUGGAGAGAAGAGUUGUGUCCUUUACCAUAGCAACAGGAUUCAUUGGGGGAUCAAAAUCAUAAUUUUAA,1.16
CUGACCACGCCCCUCGGCGGGGCCGCCCUCUGCUCCAGCCCUCCCGAUUAAAGCGUGCCCCGGUCCAUACUGUGUCUGUGUUUGUGUUGCGCAUAAGGCAGUAGUGCCUU,0.756
GGCACAUAUUGAGGCGAUCAUAAGUCUUAACUUUUCAAAAUUUUAAAUAAAAGACUUUGCACAUUGACCCCUUUCCCUGAAUUCUGUUUGUUGGGAAAGCUCCUGAAAUG,0.417
AAUAGGACUUCCUUUGAAAGCUGUAUAAUAGUGUUUCUCGGGCUUCUGUCUCUAUGAGAGAUAGCUUAUUACUCUGAUACUCUUUAAUCUUUUACAAAGGCAAGUUGCCA,0.466
UAUACAAACAUAAGUUUAUUUUAUAUGCCCAGAUGUCUACAGAGACCCUUUUUGUAAAUGUCAAGGACAUUUGGAUUUACUUUUACAGAAUAUUGAAAAGAUAAGACAAA,0.269
GUGUGUGGGAUUACAGCCAAAGUAUACUUGUCAACAUAUACGAAGUCUCUAGUCCUAACUUUUAAAGAUCUAAGGUUCCUUGGAAGUUAUUUGAAGGCCAAGAGACCUUU,0.331
CCUCCCCUGGGAGUUAGUGAUUUGGGGGACCAGCCUCACUGCAGACUCCAGGCUCUGACAGGUAGUGGCCUGGGCCCAGCUGCAAGCCAUGCUCCCCUGAGCUAUAACCC,0.334
CAACCAAGAAGGCUCAGCUGUCAUCACUUCAGAGAGGAAGGAAGAAUCUUCACUUAGCCUCAGACUUCAGGUGCAUUGACCCAUCCAUUAGUAAAGCUGCUUUGAACCAU,0.456
GCAUAUGCUUAUAUGUGAAUGUGUCCACAAAUCCCACCCCCUCUCCGUUCUGUCCCCCAUUCAAGGAAUGACAUUCUCAGUCACCCAGAGCCAUCUGGCCUACCCUCUCA,0.473

# Block 3
# Target: Histone acetyltransferase KAT6A, both winged helices, GST fusion (KAT6A, Homo sapiens, UniProt Q92794, residues 1-181)
# Method: protein binding microarray
# Form: double-stranded DNA, one strand shown
# Medium: in vitro
# Tested at: not given
# Setting: 8-mer, flanks averaged, mean of 2 arrays, mostly near background
# Relative to: not given
# Direction: higher = stronger binding
# Construct (chain): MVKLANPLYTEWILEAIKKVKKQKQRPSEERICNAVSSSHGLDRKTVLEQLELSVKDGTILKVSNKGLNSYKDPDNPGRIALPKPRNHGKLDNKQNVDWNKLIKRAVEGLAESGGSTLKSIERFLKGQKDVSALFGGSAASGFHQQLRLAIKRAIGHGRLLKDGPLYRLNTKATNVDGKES
Sequence,E-score
ACAGCGAT,-0.0345
CAAGCCCC,-0.14
ATAATCTG,-0.113
CTAAACGA,0.00507
ACCCACAC,-0.108
ATGTGTCG,-0.0691
AGTCGCCG,0.291
GGACGGAC,0.157
AGAGGCTA,-0.241
ACTTGAAC,-0.0922
CCGATCTC,0.0914
CAACTGTG,-0.00797
CGCTCTCA,0.126
CTGCAACC,-0.0686
GCCGATAC,0.214
CTGTTAGC,-0.128
AGACCAAC,-0.238

# Block 4
# Target: RING finger protein unkempt homolog, zinc fingers 1-6, SBP tag (UNK, Homo sapiens, UniProt Q9C0B0, residues 30-357)
# Sequence of UniProt Q9C0B0 (30-357, looked up): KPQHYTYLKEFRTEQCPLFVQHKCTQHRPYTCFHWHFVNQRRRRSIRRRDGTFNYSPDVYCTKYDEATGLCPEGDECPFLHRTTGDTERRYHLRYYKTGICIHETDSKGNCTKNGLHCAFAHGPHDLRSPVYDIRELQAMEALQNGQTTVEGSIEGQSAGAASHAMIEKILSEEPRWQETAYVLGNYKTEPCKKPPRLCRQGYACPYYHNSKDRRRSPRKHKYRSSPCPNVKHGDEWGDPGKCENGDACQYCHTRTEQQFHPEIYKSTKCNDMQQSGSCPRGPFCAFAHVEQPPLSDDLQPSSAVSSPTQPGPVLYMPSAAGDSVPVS
# Method: RNA Bind-n-Seq
# Form: RNA
# Medium: in vitro
# Tested at: 100 nM
# Setting: RNA with constant flanks, vertebrate orthologous sites, ends assumed
# Relative to: input RNA pool
# Direction: higher = stronger binding
# Shared flanks, not repeated: GGGAGUUCUACAGUCCGACGAUC … CAACAGAGGAUUGAGCAUCA
Sequence,bound/input enrichment [ratio]
UCUAGGUAGGAGCAACCAUUAACUUAUUCGAGUAAAGAAAUGAAAAGCUGAAAAUCAUAUUAGUAUUAAGUUUAGUUGGAGAAUUUAAAUAAGACUUUUAGGUAAUUCUAAAAUUGAGUC,0.833
ACGCUUGCAUCGUGGCAAACAGCCAACAUGGAAGUAGACGGGCUCUGCUGAUCUGAAAUUUACAUUUUUAAUUAUGUACUGGGGACAGGUUUUUGUCGCUUUACAUUGCUUCCUAGUUUA,0.64
CAGCUGAUUCACUCAUCGGGAGAGCUGCACAUAUAGCUGUUCUUGAUUCCGAGAUAUUUUUAGAGAAGUUUUUCCUGGUUGCUGCCCUCAAAUAUUUCCAGUAGAACCGAAGCAUCAUUA,1.25
AGAAAGUUACAGGCCAGACUCUGAAAGUAGGAGCACAGGAUCCUGGUUAUCAUCAUCUCUGAGGAACAGAUGCACACCUCUCUUUUCCAGACGAAGAAGAGAAGGAAGAGAUGAAUCCUC,0.277
GCCUGUGCUUAUACUCUCCUGAGGAAGAGACAAAUUGGGGAAACCUGUCUCCUUUUUAUAGUUUCCUUCUAAAUUAUGACCAGAAGAUAUUUUGCUAUUUCUUUCUUUAUAUAUGGACUU,0.813
GCAUACCCCAUCACUGUGAUAUUUAAAAUAUGCACAGUCCUAAUUCUUUCUAAAUGAUCCUAUUAUUUUUCUAGCUGUAUCUUUGUAUCUCAUACUGUUAUUUAUCAGUUUUGUUCCCCA,1.88
UGAGGGGGAGAUUUCUGUGCUUUCUCAUAUUUAAUUUCCUCUUAUUAAGAUAUUCCAACCUAGAGUUUUUGAUGGAACUGAUAUAUUGACAGUUCUCACCUAAGUCCUUUUAUAAAGAAU,1.33
GUGUUUUGUACAGGGCAUUCUCUGUACUAGUUUGUUGUGGUUAUAAAACAAUUAGCAGAAUAGCCUACAUUUGUAUUUAUUUUCUAUUCCAUACUUCUGCCCAUGUUGUUUUCUCUCAGU,1.47
ACUGUUGUUAAGCACUGUGUUCCAGACCAUGUCUGACUUAGUGUAACCUAGGAGAUUUUAUAGUUUUAUUUUAAUGGCACCCCGGUUGACGCAGAGCAGUGGGAAGAGCAGUCCCCUCUA,9.04
ACACAAAGAAGCAGGACAAGAUAUUUUAACUGUUUAAAAAUUGAGCUUUGCUGUUUUACAUAGAAUACUUUUAUAUUGUAAGUGCUUAAAAUGUGUGGAGAUGUUAGUUUUGCUCUUAUA,0.429
AGCUUCUGGUGACAUUUGGCCUGGCCUUUCAGCAUAUGAUAACAGUCCAAGGUCACCCCAUAGUCCUUCUAUUGCCUCCCCACCCAGUCAGAGUUCAUCUUGCUCUGAUGCCCCCUUGCU,0.626

# Block 5
# Target: Phosphate system positive regulatory protein PHO4, full length, GST-tagged (PHO4, Saccharomyces cerevisiae, UniProt P07270, residues 1-312)
# Method: competition protein-binding microarray
# Form: double-stranded DNA, one strand shown
# Medium: in vitro
# Tested at: 2 µM
# Setting: whole 60-bp probe, lowest competitor level
# Together with: Cbf1 competitor, 0.05 µM
# Direction: higher = stronger binding
# Shared flanks, not repeated: … GTCTTGATTCGCTTGACGCTGCTG
# Construct (chain): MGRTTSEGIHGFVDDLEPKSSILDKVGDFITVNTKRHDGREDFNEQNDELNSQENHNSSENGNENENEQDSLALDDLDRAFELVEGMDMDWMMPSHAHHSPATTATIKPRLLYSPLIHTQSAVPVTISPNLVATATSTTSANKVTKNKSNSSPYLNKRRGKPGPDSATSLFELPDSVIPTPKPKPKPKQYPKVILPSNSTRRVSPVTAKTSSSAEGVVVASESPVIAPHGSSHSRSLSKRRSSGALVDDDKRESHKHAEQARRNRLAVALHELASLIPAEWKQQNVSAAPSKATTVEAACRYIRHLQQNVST
Sequence,fluorescence intensity
TTCAACTTGGAATCCGACGTGATGGACTCAACGCCA,3040 a.u.
GCGCTGTTCTGCGGATGCGTGACGGTATCCGCAAAG,5400 a.u.
AAGCATATGCTGTTTATCGTGCTAACAAGGCGGTAT,7060 a.u.
CTGACGGCAACGCGACGCGTGACGGGTAAGATAAGA,7700 a.u.
AAATTACTAAGTTGGACTGTGGGTGACGCCGTATGA,4210 a.u.
TTTACTAGTAATTTGCACGTGATGGGGCGAGATGGT,15900 a.u.
GTCTTGTCTCATTGACAGGTGGGTGTCCCCACTTCA,5840 a.u.
TGCGCAACAACTTGTAGAGTGGGTGTATGTCTAGAA,4350 a.u.
TCGACTACTCAGTCGGACGTGGCCGTTCAGAAGGTG,5190 a.u.
TATATTTTTCAACTCCACGTGATGGCAAGCCCAACC,14300 a.u.
TGCGCAACAACTTGCTGCGTGGGTGTATGTCTAGAA,8390 a.u.
CTTCTGTAAATTTGACGCGTGGGTGGACGCGCCCCG,9060 a.u.
ACCTTCTAATTTTGGAGCGTGACGAATGGCCTCAAT,7550 a.u.
TAAAGGGACCGCTACCACATGGACAAGGAAATTTGC,7670 a.u.
CTTCTGTAAATTTGAGGGGTGGGTGGACGCGCCCCG,4660 a.u.
AAATTACTAAGTTGGGGTGTGGGTGACGCCGTATGA,6000 a.u.
AGATCTTCGAAGAACCACATGTTGGATGACCGGGCA,9430 a.u.

# Some of these lines once more (block 2):
Sequence,RBNS enrichment (R)
AGUUGUUGAAGGUACCGCUUAAGCCAUUUUUUUCUUAACAUCGGUGGCUCAGUUAAGGAAUGAGAAGAUAGAGGGUCCUCCACUUUCAGCUCAUGCUUUUUUAUGUAGGA,0.346
CCCGUAUUUGGAAAGUGUGGAGUUUGUGUUGGAAAAGCUGCCUGGAGAGAAGAGUUGUGUCCUUUACCAUAGCAACAGGAUUCAUUGGGGGAUCAAAAUCAUAAUUUUAA,1.16
CUGACCACGCCCCUCGGCGGGGCCGCCCUCUGCUCCAGCCCUCCCGAUUAAAGCGUGCCCCGGUCCAUACUGUGUCUGUGUUUGUGUUGCGCAUAAGGCAGUAGUGCCUU,0.756
GGCACAUAUUGAGGCGAUCAUAAGUCUUAACUUUUCAAAAUUUUAAAUAAAAGACUUUGCACAUUGACCCCUUUCCCUGAAUUCUGUUUGUUGGGAAAGCUCCUGAAAUG,0.417
AAUAGGACUUCCUUUGAAAGCUGUAUAAUAGUGUUUCUCGGGCUUCUGUCUCUAUGAGAGAUAGCUUAUUACUCUGAUACUCUUUAAUCUUUUACAAAGGCAAGUUGCCA,0.466
UAUACAAACAUAAGUUUAUUUUAUAUGCCCAGAUGUCUACAGAGACCCUUUUUGUAAAUGUCAAGGACAUUUGGAUUUACUUUUACAGAAUAUUGAAAAGAUAAGACAAA,0.269
